Published values pooled from the literature.
Every numbered part comes from another study and shows a few of its results, in no order.

Set 1
Target: Histone acetyltransferase KAT6A, both winged helices, GST fusion (KAT6A, Homo sapiens, UniProt Q92794, residues 1-181)
Method: protein binding microarray
Molecule type: double-stranded DNA, one strand shown
Matrix: in vitro
Concentration: not given
Notes: 8-mer, flanks averaged, mean of 2 arrays, mostly near background
Relative to: not given
Reading: higher = stronger binding
Construct (chain): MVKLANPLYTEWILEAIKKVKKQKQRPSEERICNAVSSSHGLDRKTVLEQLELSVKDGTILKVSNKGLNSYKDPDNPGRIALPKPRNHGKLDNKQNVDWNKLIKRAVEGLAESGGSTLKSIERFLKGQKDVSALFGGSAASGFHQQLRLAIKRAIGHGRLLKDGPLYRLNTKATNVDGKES
| Sequence | E-score |
| --- | --- |
| CTATACGC | 0.06 |
| CTCATACA | 0.0229 |
| ACCAATTG | -0.0743 |
| TATCATCA | 0.0393 |
| GTCATTAA | -0.0239 |

Set 2
Target: Phosphate system positive regulatory protein PHO4, full length, GST-tagged (PHO4, Saccharomyces cerevisiae, UniProt P07270, residues 1-312)
Method: competition protein-binding microarray
Molecule type: double-stranded DNA, one strand shown
Matrix: in vitro
Concentration: 2 µM
Notes: whole 60-bp probe, lowest competitor level
Added: Cbf1 competitor, 0.05 µM
Reading: higher = stronger binding
Shared flanks, not repeated: … GTCTTGATTCGCTTGACGCTGCTG
Target sequence (chain): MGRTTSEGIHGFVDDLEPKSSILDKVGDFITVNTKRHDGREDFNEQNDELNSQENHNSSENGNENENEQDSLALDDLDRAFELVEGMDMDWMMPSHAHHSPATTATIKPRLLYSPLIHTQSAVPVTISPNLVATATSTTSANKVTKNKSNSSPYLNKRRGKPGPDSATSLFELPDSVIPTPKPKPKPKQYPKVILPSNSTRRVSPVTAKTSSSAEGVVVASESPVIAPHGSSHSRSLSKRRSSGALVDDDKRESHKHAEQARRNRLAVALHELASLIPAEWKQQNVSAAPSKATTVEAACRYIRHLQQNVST
| Sequence | fluorescence intensity |
| --- | --- |
| CATACCCAACCTTGTTTTGTGGGTGAAGATATTTGT | 4090 a.u. |
| AAATTACTAAGTTGAATCGTGGGTGACGCCGTATGA | 7120 a.u. |
| CGGGGTTAAGTTTGTCACGGCACTTGCTTGCAGCAG | 3950 a.u. |
| CGGGGTTAAGTTTGTCACTATACTTGCTTGCAGCAG | 3940 a.u. |
| GTTTACTATTTATGCAACGTGGTAATAAGACTGTCT | 13100 a.u. |

Set 3
Target: Sal-like protein 4, full length isoform A (SALL4, Homo sapiens, UniProt Q9UJQ4, residues 1-1053)
UniProt Q9UJQ4, sequence (whole entry, looked up): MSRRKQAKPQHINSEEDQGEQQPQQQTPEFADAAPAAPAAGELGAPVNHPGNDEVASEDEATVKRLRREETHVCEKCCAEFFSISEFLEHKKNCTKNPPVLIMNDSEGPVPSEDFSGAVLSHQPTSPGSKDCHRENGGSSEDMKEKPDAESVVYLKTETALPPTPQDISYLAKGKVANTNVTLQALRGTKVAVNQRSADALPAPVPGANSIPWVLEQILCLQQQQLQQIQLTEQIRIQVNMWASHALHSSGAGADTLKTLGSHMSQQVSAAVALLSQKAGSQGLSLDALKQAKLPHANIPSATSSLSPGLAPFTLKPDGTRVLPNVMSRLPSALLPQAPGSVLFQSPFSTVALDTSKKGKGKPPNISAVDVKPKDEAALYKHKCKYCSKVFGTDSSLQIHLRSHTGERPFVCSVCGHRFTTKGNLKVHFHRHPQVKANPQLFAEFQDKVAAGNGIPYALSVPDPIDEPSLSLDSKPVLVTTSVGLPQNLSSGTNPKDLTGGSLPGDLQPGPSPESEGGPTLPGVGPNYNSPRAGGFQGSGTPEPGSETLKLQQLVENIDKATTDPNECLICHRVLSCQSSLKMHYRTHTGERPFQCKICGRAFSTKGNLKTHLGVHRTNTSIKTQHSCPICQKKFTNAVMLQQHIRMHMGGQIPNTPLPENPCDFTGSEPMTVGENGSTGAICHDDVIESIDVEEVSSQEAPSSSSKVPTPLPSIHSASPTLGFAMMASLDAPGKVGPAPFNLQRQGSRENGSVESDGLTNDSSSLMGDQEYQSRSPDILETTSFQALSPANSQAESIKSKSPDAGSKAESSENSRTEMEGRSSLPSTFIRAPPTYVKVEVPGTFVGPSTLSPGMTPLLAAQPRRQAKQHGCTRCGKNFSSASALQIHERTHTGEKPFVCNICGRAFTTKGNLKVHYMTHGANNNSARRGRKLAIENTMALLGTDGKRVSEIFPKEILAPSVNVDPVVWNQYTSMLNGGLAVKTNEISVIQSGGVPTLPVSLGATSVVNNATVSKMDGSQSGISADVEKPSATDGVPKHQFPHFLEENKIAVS
Method: universal PBM
Molecule type: double-stranded DNA, one strand shown
Matrix: in vitro
Concentration: 600 nM
Notes: 8-mer, flanks averaged, mean of replicates
Reading: higher = stronger binding
| Sequence | E-score |
| --- | --- |
| ACCGGTAT | -0.237 |
| CGCCTCCA | -0.0647 |
| CGTCATTC | 0.103 |

Mixed results
| Molecule | target | test | test system | conditions | scale | endpoint | result |
| --- | --- | --- | --- | --- | --- | --- | --- |
| PhoQ, residues 284 288 289 292 302 303 SLCLSL | PhoP, residues 12 14 15 18 19 AGCRL (Escherichia coli, UniProt P23836) | Sort-seq, item: YFP reporter | E. coli | PhoQ-PhoP variant library, added: 10 µM Mg2+ | relative to: high Mg2+ state, higher = stronger signaling | fold induction | 19.2 |

Some of these lines once more (set 1):
| Sequence | E-score |
| --- | --- |
| GTCATTAA | -0.0239 |
